Measured values pooled from the literature.
Each numbered part is a random draw from the data of one study; scales do not carry over between parts. Substitutions count along the parent as printed.

Set 1
Target: CCNB2, cyclin fold, Cln2 fusion (human)
Method: yeast growth competition, sequencing
Sample: yeast
Setting: weak parent motif
Reference: not given
Reading: higher = stronger binding
Parent: RBL2 docking peptide (human); STTRRRLFVENDS; partner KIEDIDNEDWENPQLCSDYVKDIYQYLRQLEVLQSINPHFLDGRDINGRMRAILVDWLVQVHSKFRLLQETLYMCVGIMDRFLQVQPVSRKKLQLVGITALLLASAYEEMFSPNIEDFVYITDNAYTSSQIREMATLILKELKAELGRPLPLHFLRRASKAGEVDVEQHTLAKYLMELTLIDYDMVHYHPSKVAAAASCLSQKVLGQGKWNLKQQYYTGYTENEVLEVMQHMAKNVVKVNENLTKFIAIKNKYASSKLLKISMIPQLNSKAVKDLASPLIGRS
| Substitution | normalised enrichment score |
| --- | --- |
| STTRRRLFVCNDS [E10C] | 0.191 |
| STTRRRLFVENDD [S13D] | 0.924 |
| STVRRRLFVENDS [T3V] | 1.59 |
| SHTRRRLFVENDS [T2H] | 0.496 |

Set 2
Target: Phosphate system positive regulatory protein PHO4, full length, GST-tagged (PHO4, Saccharomyces cerevisiae, UniProt P07270, residues 1-312)
Method: competition protein-binding microarray
Form: double-stranded DNA, one strand shown
Sample: in vitro
Tested at: 2 µM
Setting: whole 60-bp probe, lowest competitor level
With: Cbf1 competitor, 0.05 µM
Reading: higher = stronger binding
Constant ends, left off below: … GTCTTGATTCGCTTGACGCTGCTG
Residues (chain): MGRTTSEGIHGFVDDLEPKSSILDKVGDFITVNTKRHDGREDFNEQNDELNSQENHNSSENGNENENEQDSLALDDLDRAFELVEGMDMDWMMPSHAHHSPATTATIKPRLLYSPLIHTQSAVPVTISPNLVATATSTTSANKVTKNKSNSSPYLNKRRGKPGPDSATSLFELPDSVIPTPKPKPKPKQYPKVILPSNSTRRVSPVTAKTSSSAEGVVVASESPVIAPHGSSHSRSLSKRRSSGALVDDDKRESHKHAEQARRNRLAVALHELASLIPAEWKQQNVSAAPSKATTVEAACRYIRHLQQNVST
| Sequence | fluorescence intensity |
| --- | --- |
| CATACCCAACCTTGTCCCGTGGGTGAAGATATTTGT | 11800 a.u. |
| CATACCCAACCTTTTCACGTGGATTAAGATATTTGT | 14700 a.u. |
| GTCTTGTCTCATTACCACGTGTTTTTCCCCACTTCA | 16400 a.u. |
| CATACCCAACCTTGTATCGTGGGTGAAGATATTTGT | 8790 a.u. |
| AGAATTGGAAACCATCACGTACTCCGCCACCAGCAA | 5430 a.u. |
| ACCTGAAATGATTGACCTGTACAGAGGGTTACCTAT | 3630 a.u. |

Set 3
Target: Histone acetyltransferase KAT6A, winged helix 1, GST fusion (KAT6A, Homo sapiens, UniProt Q92794, residues 1-85)
Method: protein binding microarray
Form: double-stranded DNA, one strand shown
Sample: in vitro
Tested at: not given
Setting: 8-mer, flanks averaged, mean of 2 arrays, mostly near background
Reference: not given
Reading: higher = stronger binding
Construct (chain): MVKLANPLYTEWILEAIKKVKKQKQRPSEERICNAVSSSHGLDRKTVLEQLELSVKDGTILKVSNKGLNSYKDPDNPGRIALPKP
| Sequence | E-score |
| --- | --- |
| GATTTATA | -0.108 |
| CGAGCGCC | 0.311 |
| TCACCTCA | -0.157 |
| GCAACGGA | 0.275 |
| ATACCTCA | -0.205 |

Other studies, line by line
| Molecule | target | assay | system | conditions | scale | measurement | value |
| --- | --- | --- | --- | --- | --- | --- | --- |
| PhoQ, residues 284 288 289 292 302 303 TSTLRA | PhoP, residues 12 14 15 18 19 NIMAP (Escherichia coli, UniProt P23836) | Sort-seq, measured: YFP reporter | E. coli | PhoQ-PhoP variant library, with: 10 µM Mg2+ | reference: high Mg2+ state, higher = stronger signaling | fold induction | 0.368 |

A few entries again (set 3):
| Sequence | E-score |
| --- | --- |
| GCAACGGA | 0.275 |
